Published values gathered from unrelated publications.
Each numbered part is a random draw from the data of one study; scales do not carry over between parts.

Set 1 — cell line: HEK-293T/ACE2; time: 17.5 h
SMILES | CC50 [µM]
CCN(CC)C(C)CN1c2ccccc2Sc2ccccc21 (centres unmarked) | 80.8
CC(CN(C)C)CN1c2ccccc2Sc2ccccc21 (centres unmarked) | 29.5
CN(C)CCCN1c2ccccc2Sc2ccccc21 | 60.1

Set 2 — read-out: binding; method: radioligand binding; tested at: 10 µM
Target: Sodium-dependent dopamine transporter (SLC6A3, Homo sapiens, UniProt Q01959)
Chain of UniProt Q01959 (whole entry, looked up): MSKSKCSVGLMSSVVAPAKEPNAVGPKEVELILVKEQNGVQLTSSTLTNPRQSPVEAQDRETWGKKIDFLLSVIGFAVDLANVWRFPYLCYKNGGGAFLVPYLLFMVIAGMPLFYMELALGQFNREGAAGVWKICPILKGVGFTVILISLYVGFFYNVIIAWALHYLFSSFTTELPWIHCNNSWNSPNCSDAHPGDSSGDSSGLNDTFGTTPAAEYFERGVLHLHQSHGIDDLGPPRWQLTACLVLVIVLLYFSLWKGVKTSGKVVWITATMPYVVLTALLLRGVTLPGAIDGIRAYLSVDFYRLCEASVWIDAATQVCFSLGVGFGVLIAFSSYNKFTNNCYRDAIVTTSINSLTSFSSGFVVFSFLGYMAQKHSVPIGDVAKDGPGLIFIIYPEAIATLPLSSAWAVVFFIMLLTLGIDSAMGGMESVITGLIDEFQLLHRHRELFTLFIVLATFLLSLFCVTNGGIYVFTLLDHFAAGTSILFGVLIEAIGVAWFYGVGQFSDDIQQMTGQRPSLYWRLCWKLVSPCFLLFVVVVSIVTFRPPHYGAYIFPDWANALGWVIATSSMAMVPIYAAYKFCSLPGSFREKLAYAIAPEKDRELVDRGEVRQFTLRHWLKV
Structure (SMILES) | inhibition
CC(=O)c1c(NS(C)(=O)=O)c2cc(-c3ccc(Cl)cc3)c(-c3ccc(Cl)cc3Cl)nc2n(C)c1=O | 67.1%
CC[C@H](CC(=O)O)n1c(=O)c2ncccc2n(Cc2cn(C)c3cc(C)cc(C)c23)c1=O | -18.2%
CC1=C(C#N)[C@@H](c2ccc3[nH]nc(C)c3c2)C(C#N)=C(c2ccc(Cl)cc2)N1 | -10.5%
CC(=O)Nc1c(F)cc(C(=O)N[C@H]2CC[C@H](O)CC2)cc1O[C@@H](C)c1ccccc1 | 3.3%
Nc1c(C(=O)NCc2ccc(C(=O)NCCCC3CCCCC3)cc2)cnn1-c1ccccc1 | 26.8%
O=C([C@H]1C[C@H](O)CN1c1ccc(Cl)cc1)N1CC2COCC(C1)N2Cc1ccc(Cl)cc1 | -27%
O=C1c2ccc(Nc3ccc(F)cc3F)cc2CCc2ccc(OC[C@H](O)CO)cc21 | 81.4%
CN1C(=O)[C@@H](N2CCc3cn(Cc4ccccc4)nc3C2=O)COc2ccccc21 | -11.5%
O=C(Nc1cccnn1)N1CC(CC=Cc2cncc(Oc3ccc(C(F)(F)F)cn3)n2)C1 | -12.4%
CN1C(=O)[C@@H](N2CCc3c(nn(Cc4ccccc4)c3Br)C2=O)COc2ccccc21 | -8.33%
C[C@@H]1CN(c2cc(-c3nn(C)c4ccc(OC5(C)CC5)cc34)ncn2)C[C@H](C)O1 | -24.4%
Cc1c(NC(=O)c2cc(C(N)=O)nc3cc(F)ccc23)c(C(F)(F)F)nn1Cc1ccc(C(C)(C)C)cc1 | 14.7%

Set 3 — target: UBE2D3 UBC core domain (UniProt P61077); method: yeast two-hybrid; sample: yeast; notes: mostly zero background; baseline: not given; reading: higher = stronger interaction
B1: TRIM31 RING domain (UniProt Q9BZY9); chain FVNKLQEEVICPICLDILQKPVTIDCGHNFCLKCITQIGETSCGFFKCPLCKTSVRKNAIRF
B2: RNF187 RING domain (UniProt Q5TA31); chain ALPAGPAEAACALCQRAPREPVRADCGHRFCRACVVRFWAEEDGPFPCPECADDCWQRAVEP
B3: MEX3B RING domain (UniProt Q6ZN04); chain SGLRRKGSRDCSVCFESEVIAALVPCGHNLFCMECANRICEKSEPECPVCHTAVTQAIRIF
B4: TRIM54 RING domain (UniProt Q9BYV2); chain SMDNLEKQLICPICLEMFSKPVVILPCQHNLCRKCANDVFQASNPLWQSRGSTTVSSGGRFRCPSCRHEVVLDRHGV
B5: TRIM37 RING domain (UniProt O94972); chain SVESIAEVFRCFICMEKLRDARLCPHCSKLCCFSCIRRWLTEQRAQCPHCRAPLQLRELVN
Construct (chain): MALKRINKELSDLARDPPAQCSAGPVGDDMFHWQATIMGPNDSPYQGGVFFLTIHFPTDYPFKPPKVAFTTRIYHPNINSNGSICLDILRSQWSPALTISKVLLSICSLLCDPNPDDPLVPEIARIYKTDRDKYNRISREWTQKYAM
Sequence | lacZ reporter activity
MNDVLENELQCIICSEYFIEAVTLNCAHSFCSYCINEWMKRKIECPICRKDIKSKTYSL (RNF8 RING domain (UniProt O76064)) | 0
RYRQMEERITCPICIDSHIRLVFQCGHGACAPCGSALSACPICRQPIRDRIQIF (MIB2 RING domain (UniProt Q96AX9)) | 0
B1 (TRIM31 RING domain) | 0
B2 (RNF187 RING domain) | 0
B3 (MEX3B RING domain) | 0
B4 (TRIM54 RING domain) | 0
B5 (TRIM37 RING domain) | 0
LDAASGHPLVCPLCHGQYERPCLLDCFHDFCTGCLRGRATDGRLSCPLCQHQTLVKGPSG (Rnf207 RING domain (UniProt Q3V3A7)) | 0

Further values, each from its own experiment
SMILES | target or system | host | sample | tested at | time | endpoint | value
O=C(Nc1ccc2[nH]ncc2c1)c1cc(N2CCNCC2)c(F)cc1F | – | mouse | microsomes or S9 | 2 µM | 0.5 h | remaining compound | 28.1%
CCOP(=S)(OCC)Oc1cc(C)nc(C(C)C)n1 | HaCaT | – | – | 100 µM | 60 h | viability | 143%
CCCNS(=O)(=O)c1ccc(OCC(=O)N2CCN(Cc3ccc4c(c3)OCO4)CC2)c(C)c1 | – | mouse | microsomes or S9 | 2 µM | 0.5 h | remaining compound | 38.4%

Some of these lines once more (set 3):
Sequence | lacZ reporter activity
B1 (TRIM31 RING domain) | 0
B5 (TRIM37 RING domain) | 0
B3 (MEX3B RING domain) | 0
